Published values gathered from unrelated publications.
Compare with care: the assays were run in different laboratories. ± marks the error that the study gave.
Cell line: MCF7

O=[N+]([O-])c1ccc(C=NNC(Nc2ccccc2)=[S+][Au-][Cl])o1
IC50 (cell growth or viability, resazurin): 57.1 µM

Cc1ccc2c(Cl)cc(Cl)c([O-])c2n1.Cc1ccc2c(Cl)cc(Cl)c([O-])c2n1.[Co+2].c1ccc(-c2ccnc3c2ccc2c(-c4ccccc4)ccnc23)cc1
IC50 (cell growth or viability, MTT; 48 h): 7.95 µM

O=C(CCc1ccco1)N1C(=O)C2(NC(c3ccc(F)cc3)C3(C(=O)Nc4ccccc43)N2Cc2ccc(F)cc2)c2ccccc21 (stereo not shown)
IC50 (cell growth or viability, MTT; 48 h): 50.2 µM

CC(C)OC(=O)[C@H](CO)NCc1cc(Cl)c(OCc2cccc(-c3ccccc3)c2Br)cc1OCc1cccnc1
IC50 (cell growth or viability, MTT): > 10 µM

CCC(=CCc1c(O)cc2c(c1O)C(=O)CC(c1ccc(O)cc1)O2)CC (stereo not shown)
IC50 (cell growth or viability, MTT; 48 h): 20.6 µM

Cc1ccc([N+](=O)[O-])cc1S(=O)(=O)N(C)/N=C/c1cnc2ccc(Br)cn12
IC50 (cell growth or viability): 0.238 µM

C[C@@H]1CC[C@@H]([C@@](O)(COCc2ccccc2)Cn2cnc3ccccc32)[C@H](OCc2ccccc2)C1
IC50 (cell growth or viability, MTT; 72 h): 7.45 µM

Cc1ccnc(-c2cc(C(=O)O)ccn2)c1.F[P-](F)(F)(F)(F)F.F[P-](F)(F)(F)(F)F.[Ru+2].c1ccc(-c2ccccn2)nc1.c1ccc(-c2ccccn2)nc1
IC50 (cell viability; 48 h, dark): > 100 µM

Cc1nc(N(C)c2ccc3c(c2)/C(=C/c2ccccc2)C(=O)N3C)c2ccccc2n1
IC50 (cell growth or viability, MTT): 0.89 µM

NC(NN=Cc1ccc([N+](=O)[O-])o1)=[S+][Au-][Cl]
IC50 (cell growth or viability, resazurin): 44.6 µM

FC(F)(F)C1(c2ccc(CN3CCN(C(c4ccccc4)c4ccc(Cl)cc4)CC3)cc2)CCC1 (stereo not shown)
IC50 (cell growth; 72 h): 102 ± 13.4 µM

Nc1ncc(-c2nc(N3CCOCC3)nc(N3CCOCC3)n2)c(C(F)F)n1
IC50 (inhibitor, In-Cell Western, measured: Akt pSer473; 2 h): 0.0309 µM

Cc1c(COc2cc(OCc3cccc(C#N)c3)c(CN3CCCC[C@H]3C(=O)O)cc2Cl)cccc1-c1cccc(OCCCCCCC(=O)NO)c1
IC50 (cell growth or viability, CCK-8; 48 h): > 20 µM

Nc1ncc(-c2nc(N3CCOCC3)nc(N3CCN(C(=O)CCC(=O)NCCCCCCCCCCCNc4cccc5c4C(=O)N(C4CCC(=O)NC4=O)C5=O)CC3)n2)c(C(F)F)n1 (stereo not shown)
IC50 (inhibitor, In-Cell Western, measured: Akt pSer473; 2 h): 0.0402 µM

COc1ccc(C2CC(=O)c3c(cc(O)c(CC=C(C)C)c3O)O2)cc1 (stereo not shown)
IC50 (cytotoxicity, MTT; 48 h, from log IC50): 109 µM

Clc1ccc(C(Cn2cncn2)OCc2ccc3ccccc3c2)c(Cl)c1 (stereo not shown)
IC50 (cell growth or viability, MTT; 24 h): 42 µM

COC(=O)N1c2ccc3c(nc(Cc4ccccc4)n3[C@@H]3CCC[C@@H](C(=O)O)C3)c2CC[C@@H]1C
IC50 (cell growth or viability, ATP luminescence; 10 days): 1.91 µM

O=C(CN1CCOCC1)N1CCN(CC(OCc2ccc3ccccc3c2)c2ccc(Cl)cc2Cl)CC1 (stereo not shown)
IC50 (cell growth or viability, MTT; 24 h): > 50 µM

Cc1ccc2c(Cl)cc(Cl)c([O-])c2n1.Cc1ccc2c(Cl)cc(Cl)c([O-])c2n1.[Co+2].c1ccc(-c2ccccn2)nc1
IC50 (cell growth or viability, MTT; 48 h): 10.5 µM

CN(C)c1ccc(CCC(=O)N2C(=O)C3(NC(c4ccc(F)cc4)C4(C(=O)Nc5ccccc54)N3Cc3ccc(F)cc3)c3ccccc32)cc1 (stereo not shown)
IC50 (cell growth or viability, MTT; 48 h): 33.3 µM

Cc1c(COc2cc(OCc3cccc(C#N)c3)c(CN3CCCC[C@@H]3C(=O)O)cc2Cl)cccc1-c1cccc(OCCCCCC(=O)NO)c1
IC50 (cell growth or viability, CCK-8; 48 h): > 20 µM

Nc1ncc(-c2nc(N3CCOCC3)nc(N3CCN(C(=O)CCC(=O)NCCOCCOCCOCC(=O)Nc4cccc5c4C(=O)N(C4CCC(=O)NC4=O)C5=O)CC3)n2)c(C(F)F)n1 (stereo not shown)
IC50 (inhibitor, In-Cell Western, measured: Akt pSer473; 2 h): 0.41 µM

COc1ccccc1CNC[C@@](O)(COCc1ccccc1)[C@@H]1CC[C@@H](C)C[C@H]1OCc1ccccc1
IC50 (cell growth or viability, MTT; 72 h): 1.63 µM

O=C(c1ccncc1)N1CCN(CC(OCc2ccc3ccccc3c2)c2ccc(Cl)cc2Cl)CC1 (stereo not shown)
IC50 (cell growth or viability, MTT; 24 h): 40 µM

CCc1occc(=O)c1[O-].[Cl-].[W+4].c1cc[cH-]c1.c1cc[cH-]c1
IC50 (cell growth or viability, MTT): 190 µM

CC(C)CN1C(=O)CS/C1=N\N=C\c1cccc2cc3ccccc3nc12
IC50 (cell growth or viability, MTT; 48 h): > 50 µM

Cc1nc(N(C)c2ccc3c(c2)/C(=C/c2ccccc2C)C(=O)N3C)c2ccccc2n1
IC50 (cell growth or viability, MTT): 2.12 µM

Nc1cc2cccnc2c2ncccc12.[Cl-].[Cl-].[Ru+2].c1cnc2c(c1)ccc1cccnc12.c1cnc2c(c1)ccc1cccnc12
IC50 (cell growth or viability, MTT; dark): > 500 µM

COc1cc(C=O)cc(OS(=O)(=O)Oc2ccc3c(c2)CC[C@@H]2[C@@H]3CC[C@]3(C)C(=O)CC[C@@H]23)c1OC
IC50 (72 h): 14.3 µM

COc1ccc(N2C(=O)CS/C2=N\N=C\c2cccc3cc4ccccc4nc23)cc1
IC50 (cell growth or viability, MTT; 48 h): > 50 µM

NC(=O)c1ccc(-c2ccccc2Cl)c2c3c([nH]c12)CC[C@H](N)C3
IC50 (cell growth or viability): 0.0288 µM

O=C(c1cccnc1)N1CCN(CC(OCc2ccc3ccccc3c2)c2ccc(Cl)cc2Cl)CC1 (stereo not shown)
IC50 (cell growth or viability, MTT; 24 h): 29.7 µM

Clc1ccnc2c1ccc1c(Cl)ccnc12.[Co+2].[O-]c1c(I)cc(I)c2cccnc12.[O-]c1c(I)cc(I)c2cccnc12
IC50 (cell growth or viability, MTT; 48 h): 26 µM

CN1C(=O)/C(=N\c2ccc(Cl)cc2Br)c2ccccc21
IC50 (cell growth or viability, MTT; 48 h): 30.4 µM

CCCN1C(=O)CS/C1=N\N=C\c1cccc2cc3ccccc3nc12
IC50 (cell growth or viability, MTT; 48 h): > 50 µM

CCN1CCN(CC(=O)N2CCN(CC(OCc3ccc4ccccc4c3)c3ccc(Cl)cc3Cl)CC2)CC1 (stereo not shown)
IC50 (cell growth or viability, MTT; 24 h): > 50 µM

O=C1/C(=N\c2cccc(Cl)c2)c2ccccc2N1Cc1ccccc1
IC50 (cell growth or viability, MTT; 48 h): 7.45 µM

Repeated from above:
Cc1ccnc(-c2cc(C(=O)O)ccn2)c1.F[P-](F)(F)(F)(F)F.F[P-](F)(F)(F)(F)F.[Ru+2].c1ccc(-c2ccccn2)nc1.c1ccc(-c2ccccn2)nc1
IC50 (cell viability; 48 h, dark): > 100 µM

CC(C)CN1C(=O)CS/C1=N\N=C\c1cccc2cc3ccccc3nc12
IC50 (cell growth or viability, MTT; 48 h): > 50 µM

O=C(CCc1ccco1)N1C(=O)C2(NC(c3ccc(F)cc3)C3(C(=O)Nc4ccccc43)N2Cc2ccc(F)cc2)c2ccccc21 (stereo not shown)
IC50 (cell growth or viability, MTT; 48 h): 50.2 µM

CCc1occc(=O)c1[O-].[Cl-].[W+4].c1cc[cH-]c1.c1cc[cH-]c1
IC50 (cell growth or viability, MTT): 190 µM

O=C(c1cccnc1)N1CCN(CC(OCc2ccc3ccccc3c2)c2ccc(Cl)cc2Cl)CC1 (stereo not shown)
IC50 (cell growth or viability, MTT; 24 h): 29.7 µM
